Experimental data gathered from unrelated publications.
Protocols differ between the studies behind these lines. Several values in a cell are separate wells, animals, samples, runs or records. ± gives the spread as reported.
HTR2B: 5-hydroxytryptamine receptor 2B (HTR2B, Homo sapiens, UniProt P41595)
Chain of UniProt P41595 (whole entry, looked up): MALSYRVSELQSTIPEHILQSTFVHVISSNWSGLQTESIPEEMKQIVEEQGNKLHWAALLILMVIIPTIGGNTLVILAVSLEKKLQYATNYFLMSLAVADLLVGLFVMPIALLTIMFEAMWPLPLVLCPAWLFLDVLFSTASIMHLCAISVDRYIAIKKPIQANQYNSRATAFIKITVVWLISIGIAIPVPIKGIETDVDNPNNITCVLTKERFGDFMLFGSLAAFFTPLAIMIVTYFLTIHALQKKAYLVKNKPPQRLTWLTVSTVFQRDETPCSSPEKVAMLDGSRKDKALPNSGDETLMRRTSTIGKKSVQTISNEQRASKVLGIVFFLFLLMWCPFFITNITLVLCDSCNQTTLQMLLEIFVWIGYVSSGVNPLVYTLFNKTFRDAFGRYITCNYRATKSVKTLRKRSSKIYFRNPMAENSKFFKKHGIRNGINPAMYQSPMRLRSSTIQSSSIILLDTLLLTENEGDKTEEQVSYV
HDAC11: Histone deacetylase 11 (HDAC11, Homo sapiens, UniProt Q96DB2)
Chain of UniProt Q96DB2 (whole entry, looked up): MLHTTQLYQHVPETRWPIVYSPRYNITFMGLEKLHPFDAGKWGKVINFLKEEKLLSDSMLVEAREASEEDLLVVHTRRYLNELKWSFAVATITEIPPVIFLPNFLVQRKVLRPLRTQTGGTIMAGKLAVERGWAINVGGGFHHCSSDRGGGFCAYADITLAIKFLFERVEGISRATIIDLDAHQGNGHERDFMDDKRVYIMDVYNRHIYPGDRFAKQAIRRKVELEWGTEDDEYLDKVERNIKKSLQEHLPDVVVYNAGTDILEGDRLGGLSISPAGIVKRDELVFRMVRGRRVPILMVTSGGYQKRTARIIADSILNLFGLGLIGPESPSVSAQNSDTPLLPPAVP
DRD4: D(4) dopamine receptor (DRD4, Homo sapiens, UniProt P21917)
Chain of UniProt P21917 (whole entry, looked up): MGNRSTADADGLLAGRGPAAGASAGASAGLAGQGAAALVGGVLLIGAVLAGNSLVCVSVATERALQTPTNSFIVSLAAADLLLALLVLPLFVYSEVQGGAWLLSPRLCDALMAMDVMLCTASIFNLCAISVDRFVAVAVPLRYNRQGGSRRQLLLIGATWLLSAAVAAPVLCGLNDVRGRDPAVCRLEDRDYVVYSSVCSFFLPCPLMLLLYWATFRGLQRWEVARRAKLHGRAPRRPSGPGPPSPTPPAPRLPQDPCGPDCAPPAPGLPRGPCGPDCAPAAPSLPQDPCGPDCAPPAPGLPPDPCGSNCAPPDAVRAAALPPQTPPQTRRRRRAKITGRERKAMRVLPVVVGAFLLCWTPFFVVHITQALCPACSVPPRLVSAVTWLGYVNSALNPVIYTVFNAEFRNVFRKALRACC
HTR5A: 5-hydroxytryptamine receptor 5A (HTR5A, Homo sapiens, UniProt P47898)
Chain of UniProt P47898 (whole entry, looked up): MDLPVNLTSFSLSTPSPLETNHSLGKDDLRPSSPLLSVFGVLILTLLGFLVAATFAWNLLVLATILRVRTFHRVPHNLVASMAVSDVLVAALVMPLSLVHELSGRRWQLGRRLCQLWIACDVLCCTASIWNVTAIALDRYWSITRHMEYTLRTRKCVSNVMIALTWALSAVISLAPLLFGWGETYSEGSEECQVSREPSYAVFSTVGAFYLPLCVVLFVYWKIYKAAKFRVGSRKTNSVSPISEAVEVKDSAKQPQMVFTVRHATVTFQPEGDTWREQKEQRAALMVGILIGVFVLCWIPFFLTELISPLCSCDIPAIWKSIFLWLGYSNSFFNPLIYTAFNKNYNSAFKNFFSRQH
AMY2: Pancreatic alpha-amylase (AMY2, Sus scrofa, UniProt P00690)
Chain of UniProt Q96S37 (whole entry, looked up): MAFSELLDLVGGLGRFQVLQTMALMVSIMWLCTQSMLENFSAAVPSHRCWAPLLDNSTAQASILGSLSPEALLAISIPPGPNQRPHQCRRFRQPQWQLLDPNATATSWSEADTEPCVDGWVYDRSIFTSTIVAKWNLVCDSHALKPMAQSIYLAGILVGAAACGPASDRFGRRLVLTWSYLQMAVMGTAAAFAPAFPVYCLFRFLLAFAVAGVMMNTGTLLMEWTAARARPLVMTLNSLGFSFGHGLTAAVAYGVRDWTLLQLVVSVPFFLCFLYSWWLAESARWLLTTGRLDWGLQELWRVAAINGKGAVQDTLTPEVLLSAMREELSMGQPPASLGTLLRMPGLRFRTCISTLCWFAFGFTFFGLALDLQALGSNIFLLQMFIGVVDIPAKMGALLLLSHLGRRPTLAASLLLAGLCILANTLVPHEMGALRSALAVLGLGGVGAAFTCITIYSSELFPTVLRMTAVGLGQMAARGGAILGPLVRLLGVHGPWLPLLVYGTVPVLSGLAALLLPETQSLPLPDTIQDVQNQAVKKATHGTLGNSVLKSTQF
Chain of UniProt P00690 (whole entry, looked up): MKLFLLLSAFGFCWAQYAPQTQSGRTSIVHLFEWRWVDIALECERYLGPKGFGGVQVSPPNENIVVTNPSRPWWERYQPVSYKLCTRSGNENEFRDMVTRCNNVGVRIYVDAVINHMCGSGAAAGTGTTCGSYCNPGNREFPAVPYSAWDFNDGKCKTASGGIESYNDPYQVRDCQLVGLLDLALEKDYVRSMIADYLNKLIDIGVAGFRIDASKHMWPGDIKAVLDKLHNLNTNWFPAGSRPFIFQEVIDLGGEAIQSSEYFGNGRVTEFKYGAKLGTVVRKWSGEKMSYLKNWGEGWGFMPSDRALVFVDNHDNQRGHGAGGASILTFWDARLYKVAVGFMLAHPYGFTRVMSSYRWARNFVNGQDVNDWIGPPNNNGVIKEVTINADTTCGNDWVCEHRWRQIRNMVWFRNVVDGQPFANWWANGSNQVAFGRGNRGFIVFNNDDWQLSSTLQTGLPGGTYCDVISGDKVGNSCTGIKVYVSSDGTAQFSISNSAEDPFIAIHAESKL
Chain of UniProt P22001 (whole entry, looked up): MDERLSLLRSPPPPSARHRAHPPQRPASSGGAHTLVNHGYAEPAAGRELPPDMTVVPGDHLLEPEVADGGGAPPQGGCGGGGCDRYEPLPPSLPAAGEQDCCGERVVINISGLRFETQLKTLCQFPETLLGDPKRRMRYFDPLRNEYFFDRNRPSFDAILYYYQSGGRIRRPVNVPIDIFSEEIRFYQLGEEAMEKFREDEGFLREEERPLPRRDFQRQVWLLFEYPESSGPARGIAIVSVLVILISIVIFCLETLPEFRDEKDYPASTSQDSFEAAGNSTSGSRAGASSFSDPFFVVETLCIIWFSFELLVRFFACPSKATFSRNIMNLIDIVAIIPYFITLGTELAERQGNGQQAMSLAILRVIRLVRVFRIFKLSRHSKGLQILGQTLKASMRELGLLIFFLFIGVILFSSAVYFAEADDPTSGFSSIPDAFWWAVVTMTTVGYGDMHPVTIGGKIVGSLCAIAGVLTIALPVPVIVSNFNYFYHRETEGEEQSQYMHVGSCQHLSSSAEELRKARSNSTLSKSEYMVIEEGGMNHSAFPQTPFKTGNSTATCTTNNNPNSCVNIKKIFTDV
Chain of UniProt Q8N884 (whole entry, looked up): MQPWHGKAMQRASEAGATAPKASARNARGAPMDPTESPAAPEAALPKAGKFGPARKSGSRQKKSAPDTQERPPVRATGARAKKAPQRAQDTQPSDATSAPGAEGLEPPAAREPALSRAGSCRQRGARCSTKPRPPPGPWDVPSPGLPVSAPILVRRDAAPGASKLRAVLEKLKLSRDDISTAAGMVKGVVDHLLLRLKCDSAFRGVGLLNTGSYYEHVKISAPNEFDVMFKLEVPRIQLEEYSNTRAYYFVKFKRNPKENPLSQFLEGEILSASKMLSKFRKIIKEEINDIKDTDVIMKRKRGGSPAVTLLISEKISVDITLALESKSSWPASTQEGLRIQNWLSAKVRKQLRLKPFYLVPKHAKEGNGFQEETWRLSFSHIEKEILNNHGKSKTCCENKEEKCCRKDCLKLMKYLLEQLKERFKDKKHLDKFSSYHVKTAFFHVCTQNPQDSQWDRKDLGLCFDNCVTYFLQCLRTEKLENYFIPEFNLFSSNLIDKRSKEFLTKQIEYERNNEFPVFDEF
Chain of UniProt Q13523 (whole entry, looked up): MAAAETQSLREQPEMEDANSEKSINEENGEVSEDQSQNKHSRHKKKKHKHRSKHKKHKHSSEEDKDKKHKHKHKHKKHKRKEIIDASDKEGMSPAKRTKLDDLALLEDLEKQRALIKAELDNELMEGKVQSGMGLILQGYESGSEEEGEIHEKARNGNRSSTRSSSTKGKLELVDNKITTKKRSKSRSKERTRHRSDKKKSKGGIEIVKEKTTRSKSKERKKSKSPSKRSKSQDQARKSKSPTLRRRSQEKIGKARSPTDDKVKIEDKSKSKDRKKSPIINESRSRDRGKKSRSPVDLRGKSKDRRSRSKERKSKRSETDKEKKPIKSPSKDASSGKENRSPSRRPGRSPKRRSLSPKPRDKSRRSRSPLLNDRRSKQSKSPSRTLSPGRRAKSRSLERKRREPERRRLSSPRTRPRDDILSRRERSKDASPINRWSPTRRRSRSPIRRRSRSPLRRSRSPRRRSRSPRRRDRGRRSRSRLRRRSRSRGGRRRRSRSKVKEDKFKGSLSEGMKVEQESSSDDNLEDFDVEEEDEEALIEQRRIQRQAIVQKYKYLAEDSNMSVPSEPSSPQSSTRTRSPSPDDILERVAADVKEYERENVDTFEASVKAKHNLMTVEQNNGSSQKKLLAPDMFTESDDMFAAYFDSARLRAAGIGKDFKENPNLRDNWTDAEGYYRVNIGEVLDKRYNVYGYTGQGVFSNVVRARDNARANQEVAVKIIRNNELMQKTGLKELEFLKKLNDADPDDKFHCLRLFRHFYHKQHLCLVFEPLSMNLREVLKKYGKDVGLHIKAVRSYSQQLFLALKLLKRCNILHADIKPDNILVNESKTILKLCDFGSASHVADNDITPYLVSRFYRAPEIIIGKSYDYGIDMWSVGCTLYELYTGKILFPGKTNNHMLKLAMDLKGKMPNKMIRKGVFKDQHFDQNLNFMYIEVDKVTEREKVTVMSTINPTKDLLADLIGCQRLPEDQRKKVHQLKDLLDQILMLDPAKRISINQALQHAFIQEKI

For `COc1cccc(OC[C@@H]2CN(CC(=O)N3CCc4ccccc43)CCO2)c1`, the inhibition was 80.8% (HTR2B; radioligand binding; concentration not given, together with: [3H]LSD).
For `Cc1cc(OS(=O)(=O)Oc2ccccc2)cc(C(=O)NO)c1`, the inhibition was 39% (HDAC11; 10 µM).
For `[2H]c1cc(C)c(NC(=O)c2cnc(Nc3cc(N4CCCCC4)nc(C)n3)s2)c(Cl)c1`, the inhibition was over 90% (DDR2 (Homo sapiens, UniProt Q16832); 0.01 µM).
With `CC[C@@H]1[C@H](F)C(=O)N[C@@H]1COc1nccc2cc(C(N)=O)c(OC)cc12` the inhibition was 16% (PRPF4B (Homo sapiens, UniProt Q13523); ATP-site probe binding, inhibitor, ActivX ATP probe profiling; THP-1 cell lysate; 0.04 mM, other probe site).
`NC/C(=C\F)COc1cccc(Cn2c(=S)[nH]c(=O)c3[nH]cnc32)c1` gave an inhibition of under 50% (rat central GABAA receptor; radioligand binding; 10 µM, together with: muscimol).
`O=C(c1ccc(-c2ccccc2)cc1)N1CCCC1c1ccco1` (centres unmarked): inhibition “no inhibition” (β2 adrenergic receptor; GTPγS binding; 20 µM, together with: isoproterenol 10 µM).
The inhibition of `Cc1ccc(OC[C@H]2CN(CCN3CCc4ccccc43)CCO2)cn1` is reported as 43% (DRD4; radioligand binding; concentration not given, together with: [3H]N-methylspiperone).
`COC(=O)[C@@H]1[C@H]2C[C@H]3c4[nH]c5ccccc5c4CCN3C[C@@H]2CC[C@@H]1O` has an inhibition of 90.9% (rat α2-Adrenergic receptor; binding; 1 × 10 µM).
`O=C(CN1CCO[C@H](COc2cccnc2)C1)N1CCc2ccccc21` gave an inhibition of 23% (HTR5A; radioligand binding; concentration not given, together with: [3H]LSD).
`CCCCCCCCCCCCCCNC(=O)/C=C/c1ccc(O)c(O)c1` has an inhibition of 20.8 ± 1.41% (AMY2; enzyme activity; 10 µM, together with: α-glucosidase present).
The inhibition of `COc1ccc([C@@H]2CC(=O)c3c(O)cc(O)cc3O2)cc1O` is reported as 29.9 ± 0.63% (AMY2; enzyme activity, inhibitor; 50 µM, together with: CNP-G3 substrate).
`O=C1N=C(N2CCCCN2)S/C1=C\c1ccc(F)cc1O` has an inhibition of under 10% (rat alpha1-adrenergic receptor; radioligand binding; rat cerebral cortex; 10 µM, together with: [3H]prazosin).
For `O=C(/C=C/c1cccc(OS(=O)(=O)Oc2ccc(Oc3ccccc3)cc2)c1)NO`, the inhibition was 8% (HDAC11; 10 µM).
For `Cc1nn(-c2nc3ccccc3s2)c(O)c1C(c1ccccc1C(=O)O)c1c(C)nn(-c2nc3ccccc3s2)c1O`, the inhibition was 91.4% (CGAS (Homo sapiens, UniProt Q8N884); enzyme activity, inhibitor, pyrophosphatase-coupled; 25 µM, 1.5 h, together with: HT-DNA).
For `O=C1c2ccccc2CCCN1CCCCN1CCN(c2ccccn2)CC1`, the inhibition was 83.3% (HTR2B; radioligand binding; concentration not given, together with: [3H]LSD).
`CCN(CC)c1ccc(C2Nc3ccc(C(=O)c4ccccc4)cc3NC3=C2C(=O)CC(C)(C)C3)cc1` (centres unmarked) has an inhibition of 12% (sigma 2 receptor; binding; 10 µM).
`Clc1cccc(OC[C@H]2CN(CCN3CCc4ccccc43)CCO2)c1` gave an inhibition of 6.1% (HTR5A; radioligand binding; concentration not given, together with: [3H]LSD).
With `Cc1cc2c(cc1N1C(=O)c3cccc4c(CCCO)ccc(c34)C1=O)n(C)c(=O)n2C` (racemic) the inhibition was 15% (Bromodomain-containing protein 2, BD1 (BRD2, Homo sapiens, UniProt P25440); binding, BROMOscan binding; 1000 nM).
`CN(C(=O)n1cnc(-c2ccc[n+]([O-])c2)c1)C1CCCCC1` gave an inhibition of 8.22% (HTR5A; 10 µM).
For `O=C(NO)c1ccc(CN2CCCCc3ccccc32)c(F)c1`, the inhibition was -7.97% (DRD4; radioligand binding, radioligand displacement; 10 µM).
With `O=C(Nc1cccc2c(=O)cc(-c3nnn[nH]3)oc12)c1ccc(OCCCCc2ccccc2)cc1` the inhibition was 89.3% and 87.6% and 93.1% and 94.1% (Volume-regulated anion channel subunit LRRC8C, part LRRC8A IL1 chimera (LRRC8C, Homo sapiens, UniProt Q8TDW0, Y126F); ion current, inhibitor, whole-cell patch clamp; HCT LRRC8-/- cells; 3 µM, +100 mV).
For `COc1cc2c(cc1OC)C(=O)N(CCCCN1CCN(c3ccccc3OC)CC1)C2`, the inhibition was 61.4% (HTR5A; radioligand binding; concentration not given, together with: [3H]LSD).
With `COc1ccc(-c2cc(-c3ccc4oc(=O)cc(C)c4c3O)nc(N)n2)cc1` the inhibition was 73.9 ± 1.24% (AMY2; enzyme activity, inhibitor; concentration not given).
For `COc1ccc2c(c1)C(=O)N(CCN1CCN(c3ccccc3OC)CC1)C2`, the inhibition was 97.2% (DRD4; radioligand binding; concentration not given, together with: [3H]N-methylspiperone).
For `NC(=O)c1ncn([C@@H]2O[C@H](CO[P@@](=O)(O)O[P@](=O)(O)OP(=O)(O)O)[C@@H](O)[C@H]2O)n1`, the inhibition was 6.92% (Non-structural polyprotein pORF1, helicase domain (Hepatitis E virus genotype 1, UniProt P33424); ATPase activity, inhibitor, colorimetric; 28 µM, together with: ATP 100 µM).
`CC(C)c1cccc(OS(=O)(=O)Oc2cc(F)cc(C(=O)NO)c2)c1` gave an inhibition of 9% (HDAC11; 10 µM).
`CN1CCC(CNc2ccc3ncc(-c4cccc(OC(F)(F)F)c4)n3n2)CC1` gave an inhibition of over 50% (SCN5A (Homo sapiens, UniProt Q14524); membrane potential, blocker; 10 µM; relative to: control).
The inhibition of `CCCCCCCCCCC[C@@H](C[C@@H]1OC(=O)[C@H]1CCCCCC)OC(=O)[C@H](CC(C)C)NC=O` is reported as 100% (PNLIP (Sus scrofa, UniProt P00591); enzyme activity; porcine; 100 µg/mL, together with: 4-MUO).
The inhibition of `CCc1oc2ccccc2c1C(=O)c1cc(Br)c(O)c(Br)c1` is reported as 63.1% and 65.9% and 66.1% and 73.7% and 69.1% and 69.6% and 61.9% (SLC22A12 (Homo sapiens, UniProt Q96S37); urate uptake; HEK-293T; 0.5 µM, 10 min, 37 °C, together with: [14C]urate 200 µM).
The inhibition of `Cc1ccc(C(=O)Nc2ccc3ccccc3c2)o1` is reported as 15.9% (KCNA3 (Homo sapiens, UniProt P22001); ion current, whole-cell patch-clamp; 10 µM, hKv1.3).
`COc1ccc2c(c1)CN(CCCN1CCN(c3ccccc3OC)CC1)C2=O` gave an inhibition of 60% (HTR5A; radioligand binding; concentration not given, together with: [3H]LSD).
For `CN(c1ncccc1CNc1nc(Nc2ccc3c(c2)CC(=O)N3)ncc1C(F)(F)F)S(C)(=O)=O`, the inhibition was 34.5% (PBK (human); kinase activity; 1 µM).

Repeated from above:
`COC(=O)[C@@H]1[C@H]2C[C@H]3c4[nH]c5ccccc5c4CCN3C[C@@H]2CC[C@@H]1O` has an inhibition of 90.9% (rat α2-Adrenergic receptor; binding; 1 × 10 µM).
For `Cc1cc(OS(=O)(=O)Oc2ccccc2)cc(C(=O)NO)c1`, the inhibition was 39% (HDAC11; 10 µM).
`O=C(c1ccc(-c2ccccc2)cc1)N1CCCC1c1ccco1` (centres unmarked): inhibition “no inhibition” (β2 adrenergic receptor; GTPγS binding; 20 µM, together with: isoproterenol 10 µM).
